Measurements gathered from unrelated publications.
Numbered parts are unrelated; each lists some results of a single study.

Series 1 — method: universal PBM; molecule type: double-stranded DNA, one strand shown; medium: in vitro; concentration: not given; direction: higher = stronger binding
Target: Sal-like protein 4, full length isoform B (SALL4, Homo sapiens, UniProt Q9UJQ4-2, residues 1-616)
Notes: 8-mer, flanks averaged, mean of replicates
Construct (chain): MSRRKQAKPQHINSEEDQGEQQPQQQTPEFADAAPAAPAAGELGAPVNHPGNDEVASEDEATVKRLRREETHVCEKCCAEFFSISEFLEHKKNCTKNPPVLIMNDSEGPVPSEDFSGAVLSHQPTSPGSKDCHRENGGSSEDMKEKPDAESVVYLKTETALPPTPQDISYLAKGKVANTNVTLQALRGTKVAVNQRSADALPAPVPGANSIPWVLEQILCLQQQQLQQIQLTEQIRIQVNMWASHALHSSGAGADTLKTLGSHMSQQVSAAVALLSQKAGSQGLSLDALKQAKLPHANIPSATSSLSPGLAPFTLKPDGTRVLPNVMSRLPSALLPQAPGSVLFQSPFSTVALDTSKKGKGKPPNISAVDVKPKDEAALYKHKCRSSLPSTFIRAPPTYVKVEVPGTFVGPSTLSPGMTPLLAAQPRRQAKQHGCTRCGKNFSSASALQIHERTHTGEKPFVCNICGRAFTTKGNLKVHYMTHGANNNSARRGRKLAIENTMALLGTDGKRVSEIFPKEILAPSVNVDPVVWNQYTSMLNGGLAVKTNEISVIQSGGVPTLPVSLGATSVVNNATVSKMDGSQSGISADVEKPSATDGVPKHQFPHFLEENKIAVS
Oligonucleotide | E-score
AAGTGGCT | -0.0954
GGAGCAAC | -0.222
AGTTGGTA | 0.179
CCGGACGC | -0.316
AGCTGGTG | -0.208
CGGCCCGC | -0.362
ATAACTGC | 0.308
CAGGTGCG | -0.0988
CCTTATCA | 0.198
AACGCGAA | -0.0633
CGACTCGC | -0.147
AACTCACC | -0.118
GACAAAAC | 0.0493
AACCAACT | -0.00749
CCGTCAGG | -0.235
AAGGTGGC | -0.124
CTAGCAGA | -0.101
ACACCCGC | -0.191
AACCCCTC | -0.263
ATTGACGC | 0.0662
GACGCCTA | -0.143
ACTACAAA | 0.203
CTAATTGC | -0.0216
AGGGGCGA | -0.325
ACAACACA | 0.0608

Series 2 — method: RNA Bind-n-Seq; molecule type: RNA; medium: in vitro; concentration: 365 nM; baseline: no-protein control; direction: higher = stronger binding
Target: RNA binding protein fox-1 homolog 2, RRM domain, GST-SBP tag (RBFOX2, Homo sapiens, UniProt O43251-10, residues 100-194)
Notes: natural RNA segment, single round, ends assumed
Target sequence (chain): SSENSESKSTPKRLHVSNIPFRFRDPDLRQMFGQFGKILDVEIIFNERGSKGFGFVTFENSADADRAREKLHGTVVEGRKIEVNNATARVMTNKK
Oligonucleotide | RBNS enrichment (R)
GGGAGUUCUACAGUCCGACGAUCAGGAUUGACAGUAACAAAUUCUCAAAGCUUGACUGGAGCUGGCUGCAGCUCAAAACAGUGCCUCCUGCCUCUUUAGAGCGGGGCUGCUCGGCAGCAGUGACUGCAGCCCCUGGAAUUCUCGGGUGCCAA | 0.391
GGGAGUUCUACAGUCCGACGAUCUAUUUCUAUGCUUAAAAUUCUCUUUCCUAGUCAAAAAUUGCCCAAAUCUGUGUUUGCUUUCUGCUUGCUACAUUUGUCUCCCUUACUUUUCUUGAGCUAAAGACAGGCUUUGGAAUUCUCGGGUGCCAA | 1.33
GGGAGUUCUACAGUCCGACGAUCUCUGGGAAAGGGAGCUGGCCUAUUGCCCACCACCUGUUGUCAGUAGGUUAGGAGCUGUUGACUCAGGAUGAGGAAGUAUGGUCUUUAAAAAAAACAAAAUAUAUUUUAGAUGGAAUUCUCGGGUGCCAA | 1.02
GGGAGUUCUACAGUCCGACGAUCGAUGGUUAGGUUGUUCUGUAGACUGGCAAUGAGAUUAGAAGUUCCUAGCUUCAGAUAAAGAUGAAAGAGAGGAGAUCAUUGUCUUCUGUCUUCUUCUGGCCCUGGGUUUAUGGAAUUCUCGGGUGCCAA | 0.485
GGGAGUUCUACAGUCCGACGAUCGAGUUGAAUGUGCACACGUUUAUGAGAGGCCUUUGGGUGAGCUUUCUGCUCAUUCCUUGGUUUGUCUUGGGUCCCACUGGGCAGGUGUCUAGCACUGAGAGGGAGAGUGUUGGAAUUCUCGGGUGCCAA | 0.696
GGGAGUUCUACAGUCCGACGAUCGGGCUUUGCGCUUGUAAAUACUGAUAGCACUGGCUUCCUCCAAAGUCCCAACGUUCUAGCACCCCCCUCUUCUCCUUUCUCUGUCCCCCAUUUUCCAGGGGGUUUAUGGUUGGAAUUCUCGGGUGCCAA | 0.312
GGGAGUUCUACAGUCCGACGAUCUCGUCAUUUCUGUGUCCUCAAUUUUAUCUGAAAGAUUAAAACAAAAUAUAUUAUGUCACUAUUCAGUUCAUGGAGGUUUGUGCUUUUUCAUAUUUUGUGAUAUAUAAGUAUGGAAUUCUCGGGUGCCAA | 0.927
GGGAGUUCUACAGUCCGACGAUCCCAAAGUACACAGAGCUAAGUAAUCAAUUGCUACACUUAUUGCACAGCUAGACACGGAUUUCAAGUGUAUCCUAAAGCUUUGAACCAAGCUUAGCUUCUCAAAGGCCUAGUGGAAUUCUCGGGUGCCAA | 0.761
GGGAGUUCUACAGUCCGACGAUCACUUCUGUGACUUUAGACAUGCUUUCUUGUAGUGCUUCUGCAAAGGGACUUUUUUUGAAUCCUCAGUGGCAUUUUUUUAAGGGAAAUAUGCAGAGUGGAUAUCUGGGUGGUGGAAUUCUCGGGUGCCAA | 1.78
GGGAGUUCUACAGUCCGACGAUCUCCCUCUUCUGCCUUCUUCUCCUCUCCCCUCCGAGAGGGGCAGCCAGGAACUGCAACGGACUCACACUGUGCACGCUGGAUAGCGAAUAGCAGUAAGUAGCACACCCAUCUGGAAUUCUCGGGUGCCAA | 0.454
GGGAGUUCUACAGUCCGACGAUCGGUGAUAGCAUGACCCUCCAUGCUUCUUACUGGUUAAUGCUAUUUCUCACAAUGAUGCAGAUUAGGAAAAUUGAAGUAUUCAGGAAACAGGGGUGGUUGCUAAGGUUCCGUGGAAUUCUCGGGUGCCAA | 0.822
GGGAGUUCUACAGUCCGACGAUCGUGCUCAGUCAAGUGAUGGCUCCCUGCCCUUCUGUGCUCCCAGCCUGCCUCCCCCAGGGCAGGUUGGAGCCCUCAGCCCUGGCUUCUGCUCUCAGCCAGCACCACUGCCCUGGAAUUCUCGGGUGCCAA | 0.644

Series 3 — method: protein binding microarray; molecule type: double-stranded DNA, one strand shown; medium: in vitro; concentration: not given; baseline: not given; direction: higher = stronger binding
Target: Histone acetyltransferase KAT6A, winged helix 2, GST fusion (KAT6A, Homo sapiens, UniProt Q92794, residues 85-181)
Notes: 8-mer, flanks averaged, mean of 2 arrays, mostly near background
Construct (chain): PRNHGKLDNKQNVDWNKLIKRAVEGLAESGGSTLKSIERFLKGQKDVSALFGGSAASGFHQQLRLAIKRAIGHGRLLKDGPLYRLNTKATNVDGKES
Oligonucleotide | E-score
ACTTCCAT | 0.00324
CTTTGTTA | 0.0659
CAGCGTCG | 0.083
GTGATTGA | -0.029
ATTCATTG | 0.00867
CTGCTGCC | -0.0303
AGCAGCCG | 0.0951
TGTCTCAA | -0.167
ACCTCTAG | 0.0238
AAGTGTGA | -0.27
GTATGGTA | -0.162
TCCAGAGA | 0.1
CCAGGCCG | 0.16
ACGCTACC | -0.154
ATAACGGG | -0.0565
ATCGCGGA | 0.0634
CACAGAGC | 0.1
TGCTATAA | 0.0727
GAAATTAC | -0.0923
ATAGTGAG | -0.185
AGCACCAC | -0.129
AAATTCGC | 0.0885
GTCGGAAA | 0.163
AATTGAGC | -0.0965
CAACTCCA | -0.187

Series 4 — method: protein-binding microarray; molecule type: double-stranded DNA, one strand shown; medium: in vitro; concentration: 2540 nM top; notes: 60-bp whole probe; together with: salmon DNA 0.4 mg/ml; baseline: random background probes; direction: higher = stronger binding; shared flanks, not repeated: GCCTAGCAC … GTCTTGATTCGCTTGACGCTGCTG
Target: Interferon regulatory factor 3, full length, phosphomimetic (IRF3, Homo sapiens, UniProt Q14653, residues 1-427, S386D/S396D/S398D/S402D/T404D/S405D)
Sequence of UniProt Q14653 (whole entry, unmodified, looked up): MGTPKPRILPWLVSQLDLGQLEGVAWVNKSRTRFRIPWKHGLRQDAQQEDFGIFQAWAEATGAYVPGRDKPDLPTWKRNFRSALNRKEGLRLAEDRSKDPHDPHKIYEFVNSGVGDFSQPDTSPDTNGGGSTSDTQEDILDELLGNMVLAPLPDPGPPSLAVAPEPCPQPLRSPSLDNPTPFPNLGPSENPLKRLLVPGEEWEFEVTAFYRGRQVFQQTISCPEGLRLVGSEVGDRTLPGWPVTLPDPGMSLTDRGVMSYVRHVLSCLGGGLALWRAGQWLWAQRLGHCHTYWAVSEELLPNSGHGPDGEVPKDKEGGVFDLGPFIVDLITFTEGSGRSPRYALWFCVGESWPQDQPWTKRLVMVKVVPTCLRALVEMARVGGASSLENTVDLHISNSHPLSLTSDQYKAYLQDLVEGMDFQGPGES
Oligonucleotide | fitted relative affinity [z-score]
TTACGTTTCCTACTGCTTTAGTGCTAG | 3.9
CAATATATATATTATATATTTGTGCTA | 1.1
TTAGATTTAAGTATCGATTAGTGCTAG | 0.543
TCATATATACACTTATGACTGTGCTAG | 0.823
TCAGCTCTTTCGTTACTTACTGTGCTA | 1.74
TTAGGTTTCGGTATCGGTTGGTGCTAG | 8.34
GACGATTCCGGTTTCGGGACGTGCTAG | 4.37
CACGAACTGAGTTTCGAGACGTGCTAG | 1.29
GACAGTATCCTACTGCTGACGTGCTAG | 3.5
TTAAGACTGCTTATCCTTTAGTGCTAG | -0.113
TTAGCTCTCAGTATCGATTAGTGCTAG | 0.816
TTAGATATGAGTTTCGATTAGTGCTAG | 2.47
TGCTGGTTTTGTGGTCTAATGTGCTAG | -0.454
TTAGGTTTTCTTCTCCTTTAGTGCTAG | 3.78
GACGGACTGGGACTGGGGACGTGCTAG | -0.891
GTATGACTCTGCCTCTAACTGTGCTAG | -0.51
TTAGGTCTCCTACTGCTCTAGTGCTAG | 0.687
TAAGGTTCCGGTTTCGGTTAGTGCTAG | 8.07
TCAGGTTAAAATTTTGCACTGTGCTAG | 0.1
TTAGGACTGGACTATCGGTTTGTGCTA | 0.0869

Series 5 — method: protein-binding microarray; molecule type: double-stranded DNA, one strand shown; medium: in vitro; concentration: not given; direction: higher = stronger binding
Target: Max-binding protein MNT, bHLH-zipper, MAX partner unstated (MNT, Homo sapiens, UniProt Q99583, residues 220-300)
Notes: k-mer, scored over probes, only values ≥0.25
Residues (chain): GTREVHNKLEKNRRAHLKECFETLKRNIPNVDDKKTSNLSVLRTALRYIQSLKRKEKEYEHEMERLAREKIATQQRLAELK
Oligonucleotide | E-score
ACGCACGT | 0.441
CTCCACGA | 0.283
GCCCACGA | 0.286
ACGCCGTG | 0.259
CGCATGCG | 0.459
CACCTGCA | 0.269
ATGCCCAC | 0.275
ACGCCATG | 0.381
ACATGTAG | 0.287
ACGCGCGT | 0.398
CACTCATG | 0.25
ATTGCGTG | 0.268
CACCCGCC | 0.309
ATGTGTCG | 0.284
AAAACATG | 0.288
TGCATGCA | 0.368
ATGGTGTG | 0.263
AAACGCAT | 0.258
CAAGCGTG | 0.391
CACGAGGG | 0.459
CCACGCCC | 0.341
